Assay results collected from several papers.
Protocols differ between the studies behind these lines. ± gives the spread as reported. In brackets after ≈: the same amount, converted by molar mass.

SMILES = CC(C)c1cnc(-c2cc(Cl)ccc2F)cc1Nc1ccncc1C(=O)NC(CO)CO; test = monotherapy, refers to: blood alkaline phosphatase increased; system = human patients; conditions = oral, dose not given, grade 1, phase I A; quantity = patients with treatment-related adverse event; value = 9.5%
SMILES = CC12CC(c3ccc(S(C)(=O)=O)cc3)C3=C4CCC(=O)C=C4CCC3C1CCC2(O)C(F)(F)C(F)(F)F (stereo not drawn); system = human, plasma; conditions = intravenous, 15.7 µg, infusion; quantity = AUC; value = 0.00217 µg·h/mL
SMILES = O=C(O)c1cc2cc(O)ccc2n1Cc1ccc(Cl)c(C(F)(F)F)c1; system = male Wistar Hannover rat; conditions = oral, 200 mg/kg single dose; quantity = serum ALT; value = 83 U/L
SMILES = CCCCCCCC(=O)OC[C@H](NC(=O)[C@H](CO)NC(=O)CN)C(=O)N[C@@H](Cc1ccccc1)C(=O)N[C@@H](CC(C)C)C(=O)N[C@@H](CO)C(=O)N1CCC[C@H]1C(=O)N[C@@H](CCC(=O)O)C(=O)N[C@@H](Cc1cnc[nH]1)C(=O)N[C@@H](CCC(N)=O)C(=O)N[C@@H](CCCNC(=N)N)C(=O)N[C@H](C(=O)N[C@@H](CCC(N)=O)C(=O)N[C@@H](CCC(N)=O)C(=O)N[C@@H](CCCNC(=N)N)C(=O)N[C@@H](CCCCN)C(=O)N[C@@H](CCC(=O)O)C(=O)N[C@@H](CO)C(=O)N[C@@H](CCCCN)C(=O)N[C@@H](CCCCN)C(=O)N1CCC[C@H]1C(=O)N1CCC[C@H]1C(=O)N[C@@H](C)C(=O)N[C@@H](CCCCN)C(=O)N[C@@H](CC(C)C)C(=O)N[C@@H](CCC(N)=O)C(=O)N1CCC[C@H]1C(=O)N[C@@H](CCCNC(=N)N)C(=O)O)C(C)C; system = chronic HFrEF patients; conditions = intravenous infusion, 0.1 µg/kg/min, end of 120 min infusion; quantity = diastolic blood pressure; value = 56.1 ± 10.3 mmHg
SMILES = C[C@H]1Nc2nc(=O)c3[nH]ccc3n2Cc2ccc(Cl)cc21; system = female rats, plasma; conditions = 125 mg/kg, human dose 10 mg; how to read = baseline: rat over human; quantity = exposure ratio; value = not detected
SMILES = Cc1[nH]nc2c1N=C(c1ccccc1Cl)c1cnc(N3CCOCC3)cc1N2; system = human male, urine and feces; conditions = oral, 10 mg, 120 h; how to read = baseline: dose; quantity = radioactivity recovered; value = 93%
SMILES = OCc1cn(Cc2ccc(-c3noc(-c4ccc(OCC[18F])c(C(F)(F)F)c4)n3)cc2)nn1; system = rat, heart; conditions = intravenous, 2 h; quantity = tracer uptake; value = 0.94 %ID/g
SMILES = CN1CCC[C@]1(C)/C=C/S(=O)(=O)NC(=O)Nc1c2c(cc3c1CCC3)CCC2; system = human, plasma; conditions = oral, 50 mg, single dose, healthy volunteers; quantity = AUC(0-t); value = 40.8 µg·h/mL
SMILES = O=c1nc(NO)ccn1[C@@H]1O[C@H](CO)[C@@H](O)[C@H]1O; test = RT-PCR, refers to: CYP3A18; system = normal rat, liver; conditions = oral, 80 mg/kg twice daily, 5 days; how to read = baseline: untreated rats; quantity = mRNA level; value = < 0.1 fold
SMILES = CCCC[C@H](NC(=O)CN1CCC(NC(=O)CN2CCN(CC(=O)O)CCN(CC(=O)O)CCN(CC(=O)O)CC2)CC1)C(=O)N[C@H]1CC(=O)NCCCC[C@@H](C(N)=O)NC(=O)[C@H](Cc2c[nH]c3ccccc23)NC(=O)[C@H](CCCNC(=N)N)NC(=O)[C@@H](Cc2ccccc2)NC(=O)[C@H](Cc2c[nH]cn2)NC1=O; test = biodistribution; system = C57BL/6J mouse male tumour-bearing; conditions = 2 h post injection, unblocked; how to read = baseline: tumour over kidney; quantity = tumour to kidney ratio; value = 4 ± 0.9
SMILES = CC(C)=CCC[C@](C)(O)[C@H]1CC[C@]2(C)[C@@H]1[C@H](O)C[C@@H]1[C@@]3(C)CC[C@H](O)C(C)(C)[C@@H]3CC[C@]12C; system = Labrasol; conditions = 72 h, 25 °C; quantity = solubility; value = 8.63 ± 1.78 mg/mL (≈ 18.7 mM)
SMILES = COc1ccc(OC)c(/C(=C\c2ccc(O)c(O)c2)C(=O)NCCc2ccc(O)cc2)c1; system = mouse liver cytosol; conditions = concentration not given, 30 min, with: FLZ; quantity = formation from FLZ; value = not detected
SMILES = CSc1ccc([C@H]2C[C@@]3(C)[C@@H](CC[C@@]3(O)C(F)(F)C(F)(F)F)[C@@H]3CCC4=CC(=O)CCC4=C32)cc1; system = rat liver microsomes; conditions = 100 % absorption assumed; quantity = maximal oral bioavailability; value = 34%
SMILES = CC(C)CCNCC(=O)O; test = shake flask; system = water; conditions = 24 h; quantity = logP; value = -1.13
SMILES = C[C@]12C[C@H](c3ccc(S(C)(=N)=O)cc3)C3=C4CCC(=O)C=C4CC[C@H]3[C@@H]1CC[C@@]2(O)C(F)(F)C(F)(F)F (stereo partly drawn); system = human liver microsomes; conditions = 100 % absorption assumed; quantity = maximal oral bioavailability; value = 75%
SMILES = CC1=CC(C)(C)N=C2C=CC(=O)C=C12; test = LC-MS/MS; system = laying hens, kidney; conditions = oral in feed, 50 mg/kg feed ethoxyquin, 56 days; quantity = tissue residue; value = 6.2 ± 2.7 ng/g
SMILES = CCCCN1C(=O)c2cccc3c(NCCCCCN4CCOCC4)ccc(c23)C1=O; system = aqueous medium; conditions = pH 6; quantity = fluorescence brightness; value = 3130 M⁻¹ cm⁻¹
SMILES = NCCCC(=O)OCC(=O)c1ccc(O)c(C(F)(F)F)c1; system = water; conditions = with: potassium sorbate quencher; quantity = Stern-Volmer constant; value = 33 M⁻¹
SMILES = N=C(N)NCCC[C@@H]1NC(=O)[C@H](Cc2c[nH]c3ccccc23)NC(=O)[C@@H](CC2CCCCC2)NC(=O)[C@@H]2CCCN2C(=O)[C@@H](NC(=O)CCc2ccccc2)CCCNC1=O; system = C57BL/6J mice, brain; conditions = intravenous, 1 mg/kg, two-compartment model; quantity = elimination rate constant; value = 0.000322 s⁻¹
SMILES = [2H]C([2H])([2H])NC(=O)c1ccc(N2C(=S)N(c3ccc(C#N)c(C(F)(F)F)c3)C(=O)C2(C)C)cc1F; system = human, plasma; conditions = oral, 160 mg, fed, single dose; quantity = CL/F; value = 238 ± 59.1 mL/h
SMILES = Cc1ccc(OCC(=O)O)cc1; system = Sprague-Dawley rat Crl:CD(SD), female, plasma; conditions = oral, 100 mg/kg/day of parent drug, day 90, 90-day repeated dosing; quantity = t1/2; value = 3.32 h
SMILES = CC(C)C[C@H](NC(=O)CNC(=O)[C@H](Cc1ccccc1)NC(=O)[C@H](CO)NC(=O)[C@H](CC(N)=O)NC(=O)[C@H](Cc1c[nH]c2ccccc12)NC(=O)[C@H](CC(N)=O)NC(=O)[C@@H](N)Cc1ccc(O)cc1)C(=O)N[C@@H](CCCNC(=N)N)C(=O)N[C@@H](Cc1ccccc1)C(N)=O; system = rat, plasma; conditions = intravenous, 1 mg/kg; quantity = time to undetectable plasma; value = 2 h
SMILES = COc1cc2c(cc1OC)CN(CCCCn1ccc3cc(OCC[18F])ccc31)C2; system = ICR mice, male, small intestine; conditions = intravenous, 15 min; quantity = uptake; value = 12.4 ± 0.25 %ID/organ
SMILES = Oc1ccc2ccccc2c1/N=N/c1ccccc1; system = rat whole blood QC samples; conditions = 16.0 µg/L, 2 h, room temperature, short-term stability; quantity = measured concentration; value = 15.7 µg/L
SMILES = Cc1c(C(=O)Nc2ccn(C)n2)ncn1Cc1cccc(C(F)(F)F)c1; system = C57BL/6 mice, non-transgenic, plasma; conditions = oral, drinking water, 15 mg/kg daily, 10 days; quantity = concentration at time point; value = 0.0236 ± 0.0072 µg/mL
SMILES = CCCC[C@H](NC(=O)CNC(=O)CNC(=O)CN1CCN(CC(=O)O)CCN(CC(=O)O)CCN(CC(=O)O)CC1)C(=O)N[C@H]1CC(=O)NCCCC[C@@H](C(N)=O)NC(=O)[C@H](Cc2c[nH]c3ccccc23)NC(=O)[C@H](CCCNC(=N)N)NC(=O)[C@@H](Cc2ccccc2)NC(=O)[C@H](Cc2c[nH]cn2)NC1=O [lead-203 labelled]; system = C57 mouse, kidneys; conditions = intravenous, 0.056 MBq, 4 h; quantity = tissue uptake; value = 6.66 ± 1.26 %ID/g
SMILES = CC(C)[C@H](NC(=O)[C@@H]1CCCN1C(=O)[C@H](CCCNC(=N)N)NC(=O)[C@H](CS)NC(=O)[C@H](Cc1c[nH]c2ccccc12)NC(=O)[C@H](CCCNC(=N)N)NC(=O)[C@@H](Cc1ccccc1)NC(=O)[C@H](Cc1c[nH]cn1)NC(=O)[C@H](CCC(=O)O)NC(=O)[C@H](CS)NC(=O)[C@H](CS)NC(=O)CNC(=O)[C@@H]1CC(=O)N[C@@H](CCCNC(=N)N)C(=O)NCC(=O)N[C@@H](CC(=O)O)C(=O)N[C@H](Cc2ccc(O)cc2)C(=O)N1)C(N)=O [technetium-99m labelled]; system = C57 mice B16/F1 melanoma female; conditions = iv, 2 h, with: NDP-MSH blockade; how to read = baseline: tumour over blood; quantity = tumour-to-tissue ratio; value = 5.84
SMILES = CC(C)(O)c1ncc([S@](N)(=O)=NC(=O)Nc2c3c(cc4c2CCC4)CCC3)s1; system = human, plasma; conditions = oral, 30 mg, single dose, fasted, healthy volunteers; quantity = AUC(0-inf); value = 23.8 µg·h/mL
SMILES = CN1C(=O)[C@@H](Cc2ccc(O)c(I)c2)NC(=O)CNC(=O)[C@H](Cc2ccc3ccccc3c2)NC(=O)[C@H](CCCNC(=N)N)NC(=O)[C@H]1CCCNC(=O)c1ccc(CNC(=O)CN2CCN(CC(=O)O)CCN(CC(=O)O)CCN(CC(=O)O)CC2)cc1 [lutetium-177 labelled]; test = refers to: 177Lu radioactivity; system = female CB-17 SCID mice, Daudi xenograft, adrenals; conditions = intravenous, 0.16 nmol per mouse, 48 h; quantity = tissue uptake; value = 0.56 ± 0.08 %ID/g
SMILES = COc1cc(NC(C)=O)c2c(c1O)-c1c(OC)c(OC)cc3c1C(C2)N(C)CC3 (stereo not drawn); system = rat brain homogenate; conditions = 100 µg/mL, 40 d, -20 °C, long-term storage; quantity = remaining compound; value = 90.1 ± 3.5%
SMILES = CC[C@@H](C)[C@H]1NC(=O)[C@@H]([C@H](C)O)NC(=O)[C@@H](Cc2c[nH]cn2)NC(=O)CNC(=O)[C@@H](CCCNC(=N)N)NC(=O)CNC(=O)[C@@H](Cc2ccccc2)NC1=O; system = rat, retina; conditions = eye drop, dose not given, 3 h; quantity = retina concentration; value = ~4.3 µM
SMILES = CCCC[C@H](NC(=O)[C@H](CCC(=O)O)NC(=O)CNC(=O)CN1CCN(CC(=O)O)CCN(CC(=O)O)CCN(CC(=O)O)CC1)C(=O)N[C@H]1CC(=O)NCCCC[C@@H](C(N)=O)NC(=O)[C@H](Cc2c[nH]c3ccccc23)NC(=O)[C@H](CCCNC(=N)N)NC(=O)[C@@H](Cc2ccccc2)NC(=O)[C@H](Cc2c[nH]cn2)NC1=O [indium-111 labelled]; system = C57 mouse, B16/F1 melanoma; conditions = 24 h; how to read = baseline: tumour over skin; quantity = tumour to skin uptake ratio; value = 27.5
SMILES = c1ccc(CN2CCOCCOCCN(CCCCCCCCN3CCOCCOCCN(CCCCCCCCN4CCOCCOCCN(Cc5ccccc5)CCOCCOCC4)CCOCCOCC3)CCOCCOCC2)cc1; test = dynamic light scattering; system = LB Miller medium; conditions = 25 µM; quantity = aggregate size; value = 227 nm

A few entries again:
SMILES = CCCCCCCC(=O)OC[C@H](NC(=O)[C@H](CO)NC(=O)CN)C(=O)N[C@@H](Cc1ccccc1)C(=O)N[C@@H](CC(C)C)C(=O)N[C@@H](CO)C(=O)N1CCC[C@H]1C(=O)N[C@@H](CCC(=O)O)C(=O)N[C@@H](Cc1cnc[nH]1)C(=O)N[C@@H](CCC(N)=O)C(=O)N[C@@H](CCCNC(=N)N)C(=O)N[C@H](C(=O)N[C@@H](CCC(N)=O)C(=O)N[C@@H](CCC(N)=O)C(=O)N[C@@H](CCCNC(=N)N)C(=O)N[C@@H](CCCCN)C(=O)N[C@@H](CCC(=O)O)C(=O)N[C@@H](CO)C(=O)N[C@@H](CCCCN)C(=O)N[C@@H](CCCCN)C(=O)N1CCC[C@H]1C(=O)N1CCC[C@H]1C(=O)N[C@@H](C)C(=O)N[C@@H](CCCCN)C(=O)N[C@@H](CC(C)C)C(=O)N[C@@H](CCC(N)=O)C(=O)N1CCC[C@H]1C(=O)N[C@@H](CCCNC(=N)N)C(=O)O)C(C)C; system = chronic HFrEF patients; conditions = intravenous infusion, 0.1 µg/kg/min, end of 120 min infusion; quantity = diastolic blood pressure; value = 56.1 ± 10.3 mmHg
SMILES = C[C@H]1Nc2nc(=O)c3[nH]ccc3n2Cc2ccc(Cl)cc21; system = female rats, plasma; conditions = 125 mg/kg, human dose 10 mg; how to read = baseline: rat over human; quantity = exposure ratio; value = not detected
SMILES = Cc1[nH]nc2c1N=C(c1ccccc1Cl)c1cnc(N3CCOCC3)cc1N2; system = human male, urine and feces; conditions = oral, 10 mg, 120 h; how to read = baseline: dose; quantity = radioactivity recovered; value = 93%
SMILES = OCc1cn(Cc2ccc(-c3noc(-c4ccc(OCC[18F])c(C(F)(F)F)c4)n3)cc2)nn1; system = rat, heart; conditions = intravenous, 2 h; quantity = tracer uptake; value = 0.94 %ID/g
SMILES = CN1CCC[C@]1(C)/C=C/S(=O)(=O)NC(=O)Nc1c2c(cc3c1CCC3)CCC2; system = human, plasma; conditions = oral, 50 mg, single dose, healthy volunteers; quantity = AUC(0-t); value = 40.8 µg·h/mL
